Published values from different studies.
Compare with care: the assays were run in different laboratories. “And” joins repeats or separate records; there may be more than shown. ± gives the spread as reported.
Sequence of UniProt P10635 (whole entry, looked up): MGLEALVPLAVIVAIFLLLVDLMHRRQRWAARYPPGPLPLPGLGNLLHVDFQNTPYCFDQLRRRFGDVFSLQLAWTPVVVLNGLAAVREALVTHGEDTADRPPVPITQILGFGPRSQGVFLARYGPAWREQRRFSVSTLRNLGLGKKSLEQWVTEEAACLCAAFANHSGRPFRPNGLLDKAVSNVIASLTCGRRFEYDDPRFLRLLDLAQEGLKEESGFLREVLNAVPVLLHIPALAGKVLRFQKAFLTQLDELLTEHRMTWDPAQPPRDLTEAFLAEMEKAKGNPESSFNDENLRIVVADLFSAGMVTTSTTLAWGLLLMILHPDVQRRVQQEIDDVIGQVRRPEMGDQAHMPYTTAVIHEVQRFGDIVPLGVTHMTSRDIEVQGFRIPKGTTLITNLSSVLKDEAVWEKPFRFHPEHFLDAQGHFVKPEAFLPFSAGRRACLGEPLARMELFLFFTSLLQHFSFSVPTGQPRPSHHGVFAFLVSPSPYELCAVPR
Sequence of UniProt Q02750 (whole entry, looked up): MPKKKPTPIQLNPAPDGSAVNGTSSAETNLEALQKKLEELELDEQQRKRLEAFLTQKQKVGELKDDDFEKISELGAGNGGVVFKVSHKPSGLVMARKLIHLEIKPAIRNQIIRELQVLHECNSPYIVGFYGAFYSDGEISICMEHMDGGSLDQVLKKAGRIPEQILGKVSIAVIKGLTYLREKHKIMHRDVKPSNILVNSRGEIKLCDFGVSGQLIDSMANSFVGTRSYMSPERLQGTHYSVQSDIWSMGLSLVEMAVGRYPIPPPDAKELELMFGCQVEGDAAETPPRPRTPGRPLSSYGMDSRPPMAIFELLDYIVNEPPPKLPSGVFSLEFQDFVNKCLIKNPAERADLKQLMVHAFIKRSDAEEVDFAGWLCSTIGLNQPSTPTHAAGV

Structure (SMILES) | target or system | test | test system | setting | scale | measurement | result
COc1ccc2c(c1)CN(C(=O)CCN1CCC(Cc3ccccc3)CC1)CCS2 |  |  | paroxysmal AF patients | oral, 540 mg, 210 min | baseline: baseline | maximum QTcF change | 62.4 ms
COCC1CN(C2CCN(c3cc(OC)c(Nc4ncc(Br)c(Nc5ccc6c(c5P(C)(C)=O)OCCO6)n4)cc3C)CC2)C1 |  |  | EGFR-mutant NSCLC patients, plasma | oral, 30 mg single dose, median |  | Tmax | 2.96 h
CCCCN1C(=O)c2cccc3c(NCCCCCCCCN4CCOCC4)ccc(c23)C1=O |  |  | ethyl acetate |  |  | fluorescence quantum yield | 1.02
CC(C)OCCOCc1ccc(OCC(O)CN(N=O)C(C)C)cc1 (centres unmarked) | Salmonella typhimurium | Ames test | TA100 | 158 µg/plate, 30 % rat S9 | baseline: solvent control | revertant fold increase | 1 fold
Cc1ncsc1-c1ccc(C(C)NC(=O)C2CC(O)CN2C(=O)C(NC(=O)CCCCCCCCCCN2CCCC(Nc3ncc(Cl)c(Nc4ccccc4S(=O)(=O)C(C)C)n3)C2)C(C)(C)C)cc1 (centres unmarked) | 22Rv1 | RNA-seq, item: TRIP11 mRNA |  | concentration not given | baseline: DMSO | log2 fold change | -1.36
C/C(N)=N/C(=N\S(=O)(=O)c1ccc(C(F)(F)F)cc1)N1C[C@H](c2ccccc2)C(c2ccc(Cl)cc2)=N1 |  |  | Sprague-Dawley rat, male, plasma | oral, 3 mg/kg |  | AUC(0-inf) | 2680 ng·h/mL
Cc1cc(-c2ccc(C(=O)[C@@H]3CCCC[C@H]3C(=O)Nc3cnn4c3C(=O)NCC4)cc2)[nH]n1 |  |  | human, urine | oral, 200 mg, 144-168 h | baseline: dose | radioactivity recovery per interval | 0.01% and < 0.01% and 0.03%
COC1CN([C@H]2CC[C@H]([C@@]3(C)Oc4c(Cl)cc(C(=O)NCc5c(SC)cc(C)[nH]c5=O)c(C)c4O3)CC2)C1 |  | RNA-seq, item: NATD1 mouse homolog | mouse, HT-1376 xenograft, whole blood | dose not given | baseline: vehicle | log2 fold change | 0.112
O=C(NS(=O)(=O)c1cccs1)c1cc2ccccc2n1Cc1ccc(Br)c2ccccc12 |  |  | Sprague-Dawley rat, male | oral, dose not given, 2 h |  | plasma concentration | 2250 ng/mL
O=[N+]([O-])c1ccc(/C=N/Nc2nnc(N/N=C/c3ccc([N+](=O)[O-])o3)c3ccccc23)o1 |  | haemolysis | human | 1 mM, 45 min |  | haemolysis | 12.4%
CNS(=O)(=O)Nc1nccc(Cc2c(C)c3ccc(Oc4ncccc4F)cc3oc2=O)c1F | RMG-V | cell viability, CellTiter-Glo |  | 7 days |  | IC50 | 59.1 nM
CNC(=O)C1CCCN(C(=O)C2CC3CCC2N3C(=O)[C@@H]2C[C@@H](O)CN2C(=O)NCc2cccc(Cl)c2F)C1 (mixture of isomers) | Cytochrome P450 2D6 (CYP2D6, Homo sapiens, UniProt P10635) | enzyme activity, inhibitor, time-dependent inhibition |  | 0.617 µM, preincubated with NADPH | baseline: negative control | remaining activity | 109%
CCc1cnc(NC(=O)c2cc(S(=O)(=O)N3CCOCC3)ccc2N(C)C2CCCC2)s1 |  |  | mouse, serum | 10 mg/kg, 3 doses |  | CPK | 436 IU/L
O=C1NC2(CC2)COc2ncc(F)cc2[C@H]2COCCN2c2ccn3ncc1c3n2 | Salmonella typhimurium | Ames test | TA1535 | 150 µg/plate, 48 h, added: without S9 |  | revertant colonies | 10 ± 3 revertants/plate
O=C(Nc1cnccc1-c1ccc([18F])nc1)c1ccnc(NC(=O)C2CC2)c1 |  |  | FVB/NJ mice, both sexes, brain | intravenous, 5 min, median, P-gp inhibitor pretreatment, added: tariquidar 15 mg/kg iv |  | SUV | 0.404
C=CC(=O)Nc1cc(Nc2nccc(-c3cn(C)c4ccccc34)n2)c(OC)cc1N(C)CCNC |  |  | human, dried blood spots | 270 ng/mL, 2 h, room temperature, high QC level |  | remaining compound | 103%
C=C(NC(=O)c1csc(-c2nc3c(cc2O)-c2nc(cs2)C(=O)NC(C(C)O)C(=O)NC(=C(C)OC)c2nc(cs2)C(=O)NC2c4nc(cs4)C(=O)NC(COC(=O)c4c5c6c(cccc6n4O)COC(=O)C(OC4CC(C)(O)C(N(C)C)C(C)O4)C2OC5)c2nc-3cs2)n1)C(N)=O (centres unmarked) |  |  | Sprague-Dawley rat, female, plasma | intravenous infusion, 6 mg/kg, multiple doses, day 1 |  | Cmax | 4910 ng/mL
COCCN(C)CC(=O)NC(Cc1ccc(-c2ccccc2)cc1)B(O)O (centres unmarked) |  |  | male Sprague-Dawley rats | oral, 1 mg/kg |  | oral bioavailability | 113%
Cc1c(C(N)=O)cc(Cl)c2c1O[C@@](C)([C@H]1CC[C@H](N(C)C)CC1)O2 |  | radiochromatography | human, urine | oral, 200 mg | baseline: dose | urinary excretion | 1% and 0.6% and 0.8%
CCCCN1C(=O)c2cccc3c(NCCN4CCOCC4)ccc(c23)C1=O |  |  | EG |  |  | molar extinction coefficient | 6970 M⁻¹ cm⁻¹
C=CC(=O)N1CCCC(n2c(=O)c3ncccc3n(Cc3ccc(Oc4ccccc4)cc3)c2=O)C1 (centres unmarked) |  |  | BALB/c mice, male, plasma | oral, 200 mg/kg, 2 h |  | plasma concentration | 8580 ng/mL

Structure (SMILES) | target or system | test | test system | setting | scale | measurement | result
CC[C@H](C)[C@H](NC(=O)C[C@H](NC(=O)CN1CCN2CCN(CC1)CC(=O)[O][Al]([18F])[O]C(=O)C2)C(=O)O)C(=O)N[C@H]1CCc2cccc3c2N(C1=O)[C@H](C(=O)NCc1cn[nH]n1)C3 | MC-38 tumour model |  | host not given, liver | 30 min, tumour-bearing |  | tracer uptake | 0.9 %ID/g
COC(=O)[C@@]1(C(C)C)C=C(C(=O)Nc2cccc(C(=O)Nc3ccc(Nc4nccc(-c5cccnc5)n4)c(C)c3)c2)C(=O)CC1 |  |  | rat, plasma | 1 µM, 30 min |  | compound remaining | 99% and 93.5%
C=CC(=O)Nc1cccc(Cn2ncc3cnc(Nc4cnn(CCOC)c4)nc32)c1 | PRKCE human | binding, KINOMEscan |  | 100 nM | lower = stronger binding | percent of control | 100%
COc1ccc([C@@H]2CC(=O)c3c(O)cc(O[C@@H]4O[C@H](CO)[C@@H](O)[C@H](O)[C@H]4O[C@@H]4O[C@@H](C)[C@H](O)[C@@H](O)[C@H]4O)cc3O2)cc1O |  |  | Sprague-Dawley rat, male, lean, plasma | intravenous, 4 mg/kg |  | Cmax | 4.16 ± 3.68 ng/mL
O=C(NCCCOCCOCCOCCCNC(=O)[C@H]1CCCC[C@H]1C(=O)O)[C@H]1CCCC[C@H]1C(=O)O |  | pendant drop |  | 1 % w/w |  | surface tension | ~62 mN/m
CCCC[C@H](OC(C)=O)c1ccccc1C(=O)O |  |  | Sprague-Dawley rats, both sexes, whole blood | intravenous, 20 mg/kg single dose |  | AUC(0-inf) | 19700 ± 2810 ng·h/mL
CCCCN1C(=O)c2cccc3c(NCCCN4CCOCC4)ccc(c23)C1=O |  |  | Dioxane |  |  | molar extinction coefficient | 5200 M⁻¹ cm⁻¹
CN1CCCNC(=O)c2cccc(c2)C(=O)NCCCN(C)CCCNc2cccc3c2C(=O)c2cccc(c2C3=O)NCCC1 | SAS | RNA-Seq, item: RHBDD2 mRNA |  | 1 µM, 6 h | baseline: untreated cells | log2 fold change | -0.371
CN(O)C(=O)CCC(=O)NCCCN(CCCCN(CCCNC(=O)CCC(=O)N(C)O)C(=O)CCC(=O)N(C)O)C(=O)CCC(=O)N(C)O.[89Zr] |  | radio-TLC | aqueous buffer | 3 d, pH 7.2, 37 °C, 89Zr-labelled complex, added: CoCl2 10-fold excess |  | intact complex | 97.8 ± 2%
CCN(CC)c1ccc2c(c1)O[B-]1(c3ccccc3)OC(=O)C(c3ccccc3)=N[N+]1=C2 (centres unmarked) |  |  | toluene |  |  | molar absorption coefficient | 60000 M⁻¹ cm⁻¹
CN1CCC[C@]1(C)/C=C/S(=O)(=O)NC(=O)Nc1c2c(cc3c1CCC3)CCC2 |  | item: alanine aminotransferase increased, probably related | human | oral, 12.5 mg twice daily, 14 days, multiple ascending dose |  | subjects with adverse event | 0%
Nc1ncc(-c2cc(-c3cnn(CC(F)(F)F)c3)ncc2F)nc1C(=O)NC1CNCC(F)C1 (centres unmarked) | PRKG1 | KINOMEscan |  | 1 µM | baseline: DMSO control | remaining binding | 100%
O=C([O-])CN1CCN(CC(=O)[O-])CCN(CC(=O)NCC2CCC(C(=O)NC(Cc3ccc4ccccc4c3)C(=O)NCCCCC(NC(=O)NC(CCC(=O)O)C(=O)O)C(=O)O)CC2)CCN(CC(=O)[O-])CC1.[68Ga+3] (centres unmarked) |  | micro-PET/CT | mouse 22Rv1 xenograft, tumour | 4 h post-injection |  | mean tumour uptake | 4.83 ± 0.46 %ID/g
[123I]c1ccc2nc(-c3ccc(-n4ccnn4)nc3)cn2c1 |  |  | male Wistar rat, pancreas | intravenous, 4 MBq, 3 h |  | tracer uptake | 0.035 %ID/g
O=C(Nc1cnccc1-c1ccc([18F])cc1)c1ccnc(NC(=O)C2CC2)c1 |  |  | FVB/NJ mice (both sexes), bladder | intravenous, dose not given, 120 min, added: tariquidar 15 mg/kg i.v. pre-dose |  | SUV | 1.69
CCN(CC)CC#CCNc1ccnc2cc(Cl)ccc12 | Salmonella typhimurium | mini-Ames test | TA98 | 250.0 µg/well, with rat liver S9 |  | mean revertants | 13 revertants/well
Cc1nn(-c2cccc(N)c2)c(=O)c2cnc(Nc3ccc(N4CCNCC4)cc3)nc12 | MAP2K1 (Homo sapiens, UniProt Q02750) | SelectScreen kinase |  |  |  | IC50 | > 10000 nM
CCn1c(=O)c(-c2cc(NC(=O)Nc3ccccc3)c(F)cc2Br)cc2cnc(N)cc21 |  |  | human plasma | 150 ng/mL, -20 °C, 3 cycles, low QC |  | freeze-thaw stability accuracy | -10.5%
CCCCN1C(=O)c2cccc3c(NCCCCCCCCCCN4CCOCC4)ccc(c23)C1=O |  |  | ethylene glycol |  |  | molar extinction coefficient | 13800 M⁻¹ cm⁻¹
CC(C)C[C@H](NC(=O)[C@@H](CCCCNC(=O)[C@@H](Cc1ccccc1)NC(=O)CCCCCCCNC(=O)CN1CCN(CC(=O)O)CCN(CC(=O)O)CCN(CC(=O)O)CC1)NC(=O)[C@H](Cc1ccc(O)cc1)NC(=O)[C@H](CO)NC(=O)[C@H](Cc1c[nH]c2ccccc12)NC(=O)[C@H](Cc1c[nH]cn1)NC(=O)[C@@H]1CCC(=O)N1)C(=O)N[C@@H](CCCNC(=N)N)C(=O)N1CCC[C@H]1C(=O)NCC(N)=O [indium-111 labelled] |  |  | male athymic nude mice, DU-145 prostate cancer xenograft, intestines | intravenous, 0.037 MBq, 0.5 h |  | tissue uptake | 1.09 ± 0.19 %ID

Some of these lines once more:
Structure (SMILES) | target or system | test | test system | setting | scale | measurement | result
CN1CCC[C@]1(C)/C=C/S(=O)(=O)NC(=O)Nc1c2c(cc3c1CCC3)CCC2 |  | item: alanine aminotransferase increased, probably related | human | oral, 12.5 mg twice daily, 14 days, multiple ascending dose |  | subjects with adverse event | 0%
[123I]c1ccc2nc(-c3ccc(-n4ccnn4)nc3)cn2c1 |  |  | male Wistar rat, pancreas | intravenous, 4 MBq, 3 h |  | tracer uptake | 0.035 %ID/g
O=C([O-])CN1CCN(CC(=O)[O-])CCN(CC(=O)NCC2CCC(C(=O)NC(Cc3ccc4ccccc4c3)C(=O)NCCCCC(NC(=O)NC(CCC(=O)O)C(=O)O)C(=O)O)CC2)CCN(CC(=O)[O-])CC1.[68Ga+3] (centres unmarked) |  | micro-PET/CT | mouse 22Rv1 xenograft, tumour | 4 h post-injection |  | mean tumour uptake | 4.83 ± 0.46 %ID/g
COCCN(C)CC(=O)NC(Cc1ccc(-c2ccccc2)cc1)B(O)O (centres unmarked) |  |  | male Sprague-Dawley rats | oral, 1 mg/kg |  | oral bioavailability | 113%
COC(=O)[C@@]1(C(C)C)C=C(C(=O)Nc2cccc(C(=O)Nc3ccc(Nc4nccc(-c5cccnc5)n4)c(C)c3)c2)C(=O)CC1 |  |  | rat, plasma | 1 µM, 30 min |  | compound remaining | 99% and 93.5%
Cc1cc(-c2ccc(C(=O)[C@@H]3CCCC[C@H]3C(=O)Nc3cnn4c3C(=O)NCC4)cc2)[nH]n1 |  |  | human, urine | oral, 200 mg, 144-168 h | baseline: dose | radioactivity recovery per interval | 0.01% and < 0.01% and 0.03%
